{"data": "Published values collected from several papers", "cell line": "A498", "note": "Protocols differ between the studies behind these lines. ± marks the error that the study gave."}
{"Structure (SMILES)": "CC(=O)OC[C@H]1O[C@@H](Sc2sc(C(=O)c3ccc(C)cc3)c(N)c2-c2nc3ccccc3s2)[C@H](OC(C)=O)[C@@H](OC(C)=O)[C@@H]1OC(C)=O", "test": "SRB", "conditions": "10 µM, 48 h", "scale": "baseline: untreated", "measurement": "growth", "result": "98.9%"}
{"Structure (SMILES)": "CCCC(CCC)C(=O)[O][Pt]1([O]C(=O)C(CCC)CCC)[O]C(=O)C(=O)[O]1.NC1CCCCC1N", "test": "cell growth", "conditions": "72 h", "measurement": "IC50", "result": "5.21 ± 1.1 µM"}
{"Structure (SMILES)": "C=C1C(=O)OC2CC3=C[C@@H](C/C(C)=C/C(OC(=O)Cc4cccc5ccccc45)[C@H]12)OC3=O (stereo partly shown)", "test": "cell growth or viability, MTT", "conditions": "24 h", "measurement": "IC50", "result": "0.79 µM"}
{"Structure (SMILES)": "COc1cc(CNC(=O)C[C@H](C)CCC=C(C)C)ccc1OCc1cn(-c2ccccc2)nn1", "test": "SRB", "conditions": "10 µM, 48 h", "measurement": "growth percent", "result": "92.2%"}
{"Structure (SMILES)": "Cc1ccc(C2=Nn3c(N/N=C4/C(=O)Nc5ccc(Br)cc54)nnc3SC2)cc1", "test": "cell growth or viability, SRB", "conditions": "10 µM", "measurement": "inhibition", "result": "10%"}
{"Structure (SMILES)": "CC(=O)[O][Pt]([Cl])([Cl])[O]C(C)=O.N.N", "test": "cell growth", "conditions": "72 h", "measurement": "IC50", "result": "20.1 ± 0.85 µM"}
{"Structure (SMILES)": "COc1cc(CNC(=O)C[C@H](C)CCC=C(C)C)ccc1OCc1cn(-c2ccccc2Cl)nn1", "test": "SRB", "conditions": "10 µM, 48 h", "measurement": "growth percent", "result": "107%"}
{"Structure (SMILES)": "CC(=O)[O][Pt]1([O]C(C)=O)[O]C(=O)C(=O)[O]1.NC1CCCCC1N", "test": "cell growth", "conditions": "72 h", "measurement": "IC50", "result": "22.4 ± 5.05 µM"}
{"Structure (SMILES)": "COc1cc(CNC(=O)C[C@H](C)CCC=C(C)C)ccc1O", "test": "SRB", "conditions": "10 µM, 48 h", "measurement": "growth percent", "result": "104%"}
{"Structure (SMILES)": "O=C1CS/C(=N\\N=C2/C(=O)N(CCn3ncc4c(=O)[nH]cnc43)c3ccc(Cl)cc32)N1", "test": "cell growth or viability, SRB", "conditions": "72 h", "measurement": "IC50", "result": "93.3 µM"}
{"Structure (SMILES)": "CC(=O)[O][Pt]([Cl])([Cl])[O]C(=O)CCCc1ccccc1.N.N", "test": "cell growth", "conditions": "72 h", "measurement": "IC50", "result": "8.42 ± 1.47 µM"}
{"Structure (SMILES)": "COc1cc(CNC(=O)C[C@H](C)CCC=C(C)C)ccc1OCc1cn(-c2ccc(Br)cc2)nn1", "test": "SRB", "conditions": "10 µM, 48 h", "measurement": "growth percent", "result": "105%"}
{"Structure (SMILES)": "O=C(O)c1ccc([P+]([Au-][Cl])(c2ccccc2)c2ccccc2)cc1", "test": "cell viability, XTT", "conditions": "72 h", "measurement": "IC50", "result": "21 µM"}
{"Structure (SMILES)": "CCCC(CCC)C(=O)[O][Pt]1([OH])[O]C(=O)C(=O)[O]1.NC1CCCCC1N", "test": "cell growth", "conditions": "72 h", "measurement": "IC50", "result": "21.1 ± 3.07 µM"}
{"Structure (SMILES)": "COc1ccc2c(c1)/C(=N\\Nc1nnc3n1N=C(c1ccccc1)CS3)C(=O)N2", "test": "cell growth or viability, SRB", "conditions": "10 µM", "measurement": "inhibition", "result": "23%"}
{"Structure (SMILES)": "CC(=C(c1ccc(O)cc1)c1ccc(Cl)cc1)c1ccc(Cl)cc1", "test": "cell growth or viability", "measurement": "GI50", "result": "3.12 µM"}
{"Structure (SMILES)": "O=C([O][Ti+2][O]C(=O)c1ccc([P+]([Au-][Cl])(c2ccccc2)c2ccccc2)cc1)c1ccc([P+]([Au-][Cl])(c2ccccc2)c2ccccc2)cc1.c1cc[cH-]c1.c1cc[cH-]c1", "test": "cell viability, XTT", "conditions": "24 h", "measurement": "IC50", "result": "28 µM"}
{"Structure (SMILES)": "COc1cc(CNC(=O)C[C@H](C)CCC=C(C)C)ccc1OCc1cn(-c2cccc(Cl)c2)nn1", "test": "SRB", "conditions": "10 µM, 48 h", "measurement": "growth percent", "result": "142%"}
{"Structure (SMILES)": "CC/C=C\\C/C=C\\C/C=C\\C/C=C\\C/C=C\\C/C=C\\CCC(=O)Nc1ccn(C2OC(CO)C(O)C2(F)F)c(=O)n1 (stereo not shown)", "test": "NCI60 screen", "measurement": "TGI", "result": "16.1 µM"}
{"note": "A few entries again:"}
{"Structure (SMILES)": "CC(=O)[O][Pt]([Cl])([Cl])[O]C(C)=O.N.N", "test": "cell growth", "conditions": "72 h", "measurement": "IC50", "result": "20.1 ± 0.85 µM"}
{"Structure (SMILES)": "COc1cc(CNC(=O)C[C@H](C)CCC=C(C)C)ccc1OCc1cn(-c2ccc(Br)cc2)nn1", "test": "SRB", "conditions": "10 µM, 48 h", "measurement": "growth percent", "result": "105%"}
